# Measured values from different studies.
# “And” joins repeats or separate records; there may be more than shown. Numbers after ± are the reported error.
SMILES,cell line,assay,setting,how to read,quantity,result
C#CCN1C(=O)C(CC#C)(C(=O)OCC)Oc2ccccc21 (stereo not shown),HEK293T,"cytotoxicity, CCK-8","12.5 µM, 72 h",,inhibition,0.49 ± 0.33%
O=C(C[Se]C(=O)c1cc2ccccc2[nH]1)Nc1cccc(C(F)(F)F)c1,NCI60 ovarian subpanel,"cytotoxicity, inhibitor",five-dose,,CC50,6.24 µM
Cc1cccc(-c2cccc(C)n2)n1.Cc1cccc(-c2cccc(C)n2)n1.F[P-](F)(F)(F)(F)F.F[P-](F)(F)(F)(F)F.[Ru+2].c1ccc2c(-c3nc4c5cccnc5c5ncccc5c4[nH]3)cccc2c1,SK-MEL-28,,"normoxia, added: blue light 453 nm, 100 J/cm2",relative to: dark over light EC50,phototoxicity index,22
O=C(C[Se]C(=O)c1cc2ccccc2o1)Nc1cccc(C(F)(F)F)c1,NCI60 NSCLC subpanel,NCI60 five-dose screen,,,CC50,5.91 µM
N[C@H](C(=O)N1CCCC1)C1CCN(c2nccc3c(-c4ncc(Cl)cc4Cl)cccc23)CC1,human neutrophils,"protein citrullination, inhibitor, flow cytometry, refers to: citrullinated proteins","3.16 nM, added: ionomycin",,inhibition,1.46% and -0.575% and 5.02% and -10.3%
O=C(C[Se]C(=O)c1cccnc1Nc1cccc(C(F)(F)F)c1)Nc1cccc(C(F)(F)F)c1,NCI60 NSCLC subpanel,NCI60 five-dose screen,,,CC50,6.36 µM
CSCC[C@H](NC(=O)[C@@H](NC(=O)[C@H](CCC(N)=O)NC(=O)[C@H](CO)NC(=O)[C@@H](N)C(C)C)[C@@H](C)O)C(=O)N[C@@H](CCCNC(=N)N)C(=O)N[C@@H](CCC(N)=O)C(=O)N[C@H](C(=O)N[C@@H](C)C(=O)N[C@H](C(=O)N1CCC[C@H]1C(=O)N[C@@H](CC(C)C)C(=O)N[C@@H](CC(C)C)C(=O)N[C@@H](Cc1c[nH]c2ccccc12)C(=O)N[C@@H](Cc1ccccc1)C(=O)N[C@@H](Cc1c[nH]c2ccccc12)C(=O)N[C@H](C(=O)NCC(=O)N[C@@H](CO)C(=O)N[C@@H](CC(C)C)C(=O)NCCOCCOCCOCCOCCOCCOCCOCCOCCOCCOCCOCCOCCC(=O)N[C@@H](CS)C(N)=O)[C@@H](C)O)C(C)C)[C@@H](C)O,H1648,phage binding,"10 min, 37 °C",relative to: control phage,selectivity ratio,1.4 ± 0.22
O=C1C=CC(=O)c2c(O)cccc21,MOLT-3,XTT,,relative to: IC50 MRC-5 over IC50 MOLT-3,selectivity index,3.31
C=CCN1C(=O)C(CC=C)(C(=O)OCC)Oc2cc(F)ccc21 (stereo not shown),HEK293T,"cytotoxicity, CCK-8","3.13 µM, 72 h",,inhibition,0.02 ± 0.19%
COc1ccccc1-c1ccncc1C(=O)Nc1nnc(OCc2ccc(Cl)cc2)s1,RPE-1 TP53-/- BRCA1-/-,,"2 µM, average of 2 runs",relative to: untreated,colony survival,41.5%
O=C(C[Se]C(=O)c1ccco1)Nc1cccc(C(F)(F)F)c1,NCI60 breast subpanel mean,cell growth,,,TGI,20.6 µM
NC(=O)N/N=C/c1ccc(OCc2ccccc2)cc1,IMR-32,refers to: GPX3,"500 µg/mL, 24 h",higher = more activity,glutathione peroxidase activity (OD450),0.349 a.u.
Cc1cc(Nc2nc(C[C@@]3(C(=O)O)CCN(Cc4cccc(Cl)c4F)[C@H](C)C3)cc(C)c2F)[nH]n1,EFO-27,"cell growth or viability, ATP luminescence",5 days,,IC50,0.234 µM
O=C(O)c1ccc(-c2nc(-c3ccccc3Cl)c3sccn23)cc1,K562,"erythroid differentiation, flow cytometry","0.1 mM, 72 h",relative to: untreated,CD235a fluorescence intensity,0.73 fold change and 1.11 fold change and 1.18 fold change
CC(=O)NCSC[C@H](NC(=O)[C@@H]1CCCN1C(=O)[C@H](C)NC(=O)[C@@H](NC(=O)CNC(=O)[C@@H](NC(=O)[C@H](Cc1c[nH]c2ccccc12)NC(=O)[C@H](C)NC(=O)CNC(=O)[C@H](CO)NC(=O)[C@H](C)NC(=O)[C@@H]1CCCN1C(=O)[C@H](Cc1c[nH]c2ccccc12)NC(=O)[C@H](C)NC(=O)[C@H](C)NC(=O)[C@@H](N)Cc1ccc(O)cc1)[C@@H](C)O)[C@@H](C)O)C(=O)N[C@@H](CO)C(=O)N[C@@H](C)C(=O)NCC(=O)N[C@H](C(=O)NCCOCCOCCOCCOCCOCCOCCOCCOCCOCCOCCOCCOCCC(=O)N[C@@H](CS)C(N)=O)[C@@H](C)O,H322,phage binding,"10 min, 37 °C",relative to: control phage,selectivity ratio,10 ± 3.8
O=C(C[Se]C(=O)c1ccccc1)Nc1cccc(C(F)(F)F)c1,NCI60 ovarian subpanel,"total growth inhibition, inhibitor",five-dose,,mean TGI,5.3 µM
CC(C)CC(O)(CC(C)C)c1cn(C(=O)N2CCCC2)nn1,mouse T-cells,"SILAC proteomics, refers to: Ptpn18","1 nM, 6 h, single peptides, unit not given",relative to: DMSO,protein level,0.93 and 0.97 and 1.11
O=C(C[Se]C(=O)c1cccs1)Nc1cccc(C(F)(F)F)c1,NCI60 renal subpanel,"cytotoxicity, inhibitor",five-dose,,CC50,6.43 µM
CC(C)(C)C(=O)OCOP(=O)(OCOC(=O)C(C)(C)C)C1CCCN(O)C1=O (stereo not shown),SK-MEL-28,,,,log GI50,-6.49 log M
O=C(C[Se]C(=O)c1ccc2ccccc2c1)Nc1cccc(C(F)(F)F)c1,NCI60 ovarian subpanel,"cytotoxicity, inhibitor",five-dose,,CC50,8.37 µM
CC(C)[C@H](NC(=O)[C@H](CCCNC(=N)N)NC(=O)[C@@H]1CCCN1C(=O)[C@@H](NC(=O)[C@H](C)NC(=O)[C@H](Cc1ccc(O)cc1)NC(=O)[C@H](CCC(N)=O)NC(=O)[C@H](CCCCN)NC(=O)[C@H](CCCNC(=N)N)NC(=O)[C@@H]1CCCN1C(=O)[C@H](CCC(=O)O)NC(=O)[C@@H](NC(=O)[C@H](C)N)[C@@H](C)O)[C@@H](C)O)C(=O)N[C@@H](Cc1ccccc1)C(=O)N[C@@H](Cc1c[nH]c2ccccc12)C(=O)N[C@H](C(=O)N[C@@H](CC(=O)O)C(=O)N[C@@H](C)C(=O)N1CCC[C@H]1C(=O)NCC(=O)NCCOCCOCCOCCOCCOCCOCCOCCOCCOCCOCCOCCOCCC(=O)N[C@@H](CS)C(N)=O)[C@@H](C)O,PANC-1 pancreatic cancer,"cell binding, phage binding, refers to: output/input phage","10 min, 37 °C",relative to: control phage,selectivity ratio,9 ± 3
CNC(=S)NCCCC[C@H](NC(=O)CCc1ccccc1)C(=O)N[C@@H](CCCNC(=N)N)C(=O)N[C@@H](CC1CCCCC1)C(=O)N[C@H](CCCCN)C(=O)N[C@@H](CC1CCCCC1)C(N)=O,Jurkat,"cell growth or viability, MTT",72 h,,EC50,51.2 µM
Cc1cc(Oc2nc(N3CC[C@@H](c4ccncc4)C3)ncc2F)[nH]n1,BT-20,cell growth or viability,,,IC50,56.2 µM
CC(C)C[C@H](NC(=O)[C@H](CC(=O)O)NC(=O)CNC(=O)[C@@H](N)CCCNC(=N)N)C(=O)N[C@@H](C)C(=O)N[C@H](C(=O)N[C@@H](CC(C)C)C(=O)N[C@@H](CCCNC(=N)N)C(=O)N[C@@H](CCC(N)=O)C(=O)N[C@@H](CC(C)C)C(=O)N[C@@H](C)C(=O)N[C@@H](CCC(N)=O)C(=O)N[C@@H](CCC(=O)O)C(=O)N[C@@H](CC(=O)O)C(=O)NCC(=O)N[C@H](C(=O)N[C@H](C(=O)NCC(=O)N[C@H](C(=O)N[C@@H](CCCNC(=N)N)C(=O)NCCOCCOCCOCCOCCOCCOCCOCCOCCOCCOCCOCCOCCC(=O)N[C@@H](CS)C(N)=O)C(C)C)C(C)C)C(C)C)[C@@H](C)O,HCC78,phage binding,,relative to: targeting over control phage,selectivity ratio,95 ± 21
[Cl-].[Cl-].[Ru+2].c1ccc(-c2ccccn2)nc1.c1ccc(-c2ccccn2)nc1.c1ccc2cc3nc4c5cccnc5c5ncccc5c4nc3cc2c1,SK-MEL-28,,"1% O2, added: green light 523 nm, 100 J/cm2",relative to: dark over light EC50,phototoxicity index,1

# Repeated from above:
SMILES,cell line,assay,setting,how to read,quantity,result
O=C(C[Se]C(=O)c1cc2ccccc2o1)Nc1cccc(C(F)(F)F)c1,NCI60 NSCLC subpanel,NCI60 five-dose screen,,,CC50,5.91 µM
N[C@H](C(=O)N1CCCC1)C1CCN(c2nccc3c(-c4ncc(Cl)cc4Cl)cccc23)CC1,human neutrophils,"protein citrullination, inhibitor, flow cytometry, refers to: citrullinated proteins","3.16 nM, added: ionomycin",,inhibition,1.46% and -0.575% and 5.02% and -10.3%
